Measured values pooled from the literature.
Compare with care: the assays were run in different laboratories.
Sample: plasma

Compound	species	route	dose	setting	measurement	result
O=C(c1nc2n(n1)[C@H](c1ccccc1)C[C@@H]2F)C1CC1	human	oral	225 mg	single dose, fasted, healthy volunteers	Vd/F	82.3 L
CCCC[C@H](NC(C)=O)C(=O)N[C@H]1CCC(=O)NC[C@@H](C(=O)N[C@@H](Cc2c[nH]c3ccccc23)C(N)=O)NC(=O)[C@H](CCCNC(=N)N)NC(=O)[C@@H](Cc2ccccc2)NC(=O)[C@H](Cc2c[nH]cn2)NC1=O	human	subcutaneous	1 mg	single dose, healthy volunteers	Vd/F	171 L
CCOc1ccc(Cc2cc([C@@H]3S[C@H](CO)[C@@H](O)[C@H](O)[C@H]3O)c(OC)cc2C)cc1	human	oral	5 mg/day	multiple doses	Vd/F	39.3 L
Cn1cc(-c2cnc3cnn(S(=O)(=O)c4cnc5ccc(-c6cnn(C)c6)cn45)c3c2)cn1	male human	oral	300 mg	single dose, fasted, healthy volunteers	Vd/F	462 L
O=C(c1cccnc1-c1ccncc1)N1CCC(O)(Cc2ccccc2)CC1	human	oral	400 mg	multiple doses, once daily, healthy volunteers	Vd/F	713 L
COc1cccc(OCCCN)c1-c1cc(Nc2cnc(C#N)cn2)n[nH]1	human	intravenous	80 mg/m²	patients, infusion	Vd	1000 L
CCOc1ccc(Cc2cc([C@]34OC[C@](CO)(O3)[C@@H](O)[C@H](O)[C@H]4O)ccc2Cl)cc1	human	oral	15 mg	single dose, healthy volunteers	Vd/F	305 L
COc1cccc(-c2ccc(NC(=O)C3=C(C(=O)O)CCC3)c(F)c2)c1	male human	oral	40 mg	single dose, fasted, healthy volunteers	Vd/F	12.5 L

For quick reference, copied from above:
Compound	species	route	dose	setting	measurement	result
Cn1cc(-c2cnc3cnn(S(=O)(=O)c4cnc5ccc(-c6cnn(C)c6)cn45)c3c2)cn1	male human	oral	300 mg	single dose, fasted, healthy volunteers	Vd/F	462 L
